Results gathered from unrelated publications.
Each numbered part is a random draw from the data of one study; scales do not carry over between parts. Positions count from the first letter of the parent shown.

Set 1
Target: Interferon regulatory factor 7, full length, phosphomimetic (IRF7, Homo sapiens, UniProt Q92985, residues 1-503, S471D/S472D/S475D/S476D/S477D/S483D/S484D/S487D)
Chain of UniProt Q92985 (whole entry, unmodified, looked up): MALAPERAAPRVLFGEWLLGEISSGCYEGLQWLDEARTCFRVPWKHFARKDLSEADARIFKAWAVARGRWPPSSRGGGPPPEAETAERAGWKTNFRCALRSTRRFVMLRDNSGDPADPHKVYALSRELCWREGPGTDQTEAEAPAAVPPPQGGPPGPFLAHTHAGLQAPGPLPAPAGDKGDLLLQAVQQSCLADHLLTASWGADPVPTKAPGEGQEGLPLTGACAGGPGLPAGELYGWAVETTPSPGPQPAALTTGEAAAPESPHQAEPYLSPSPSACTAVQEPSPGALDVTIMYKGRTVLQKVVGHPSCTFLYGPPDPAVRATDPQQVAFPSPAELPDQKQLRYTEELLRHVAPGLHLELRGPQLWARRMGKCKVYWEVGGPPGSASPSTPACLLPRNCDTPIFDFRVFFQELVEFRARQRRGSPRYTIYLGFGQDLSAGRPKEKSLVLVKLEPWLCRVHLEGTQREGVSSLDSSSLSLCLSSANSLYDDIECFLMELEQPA
Method: protein-binding microarray
Form: double-stranded DNA, one strand shown
Sample: in vitro
Tested at: 2200 nM top
Notes: 60-bp whole probe
With: salmon DNA 0.4 mg/ml
Relative to: random background probes
Direction: higher = stronger binding
Constant ends, left off below: GCCTAGCAC … GTCTTGATTCGCTTGACGCTGCTG
For `TTCGGTCTCGGACTGGGTTAGTGCTAG`, “fitted relative affinity” read 0.175 z-score.
Under “fitted relative affinity”, `ACATCTCTCTTAAATAGGGACGTGCTA` is recorded as 0.401 z-score.
For `GACCGTTTCCTTTTCCTGACGTGCTAG`, “fitted relative affinity” read 4.4 z-score.
`GGGATTTTGTCCTCCCCTCCCGTGCTA`: “fitted relative affinity” -0.0677 z-score.
`TTAGGTTTCCTTATCCATTAGTGCTAG`: “fitted relative affinity” 2.02 z-score.
Under “fitted relative affinity”, `ATAGGACTGGACACTGGGTTAGTGCTA` is recorded as -0.597 z-score.
For `CAGAATTTACTTTCTACGTCGTGCTAG`, “fitted relative affinity” read 1.52 z-score.
`GACGGTTTCGACTTTTGGGACGTGCTA`: “fitted relative affinity” 5.36 z-score.
For `TTAGTTTTCCTTCTCCTTTAGTGCTAG`, “fitted relative affinity” read 4.23 z-score.
Under “fitted relative affinity”, `TTCGATTTCGGGTATCGATTAGTGCTA` is recorded as 4.17 z-score.
Under “fitted relative affinity”, `TCCAATTGTCCTTTCACTTTGTGCTAG` is recorded as 4.42 z-score.
For `TTAGAACAGGGGACTGGATTAGTGCTA`, “fitted relative affinity” read -0.436 z-score.
`TTAGGACTGGGTAGCGGTTAGTGCTAG` — result for “fitted relative affinity”: -0.755 z-score.
`TTAGATATCGGGTATCGAATAGTGCTA` — result for “fitted relative affinity”: 0.167 z-score.
For `GACGGTTTAGGGTATCGGGACGTGCTA`, “fitted relative affinity” read 0.42 z-score.
`GGCTTTTTAATGAATGAAGAGGTGCTA` — result for “fitted relative affinity”: -0.903 z-score.
`TCATGTTTGGTTCTTATACTGTGCTAG` — result for “fitted relative affinity”: 2.22 z-score.
Under “fitted relative affinity”, `TACCTTAGGTTTTCTGGTTCCGTGCTA` is recorded as 2.46 z-score.

Set 2
Target: Histone acetyltransferase KAT6A, winged helix 1, GST fusion (KAT6A, Homo sapiens, UniProt Q92794, residues 1-85)
Method: protein binding microarray
Form: double-stranded DNA, one strand shown
Sample: in vitro
Tested at: not given
Notes: 8-mer, flanks averaged, mean of 2 arrays, mostly near background
Relative to: not given
Direction: higher = stronger binding
Construct (chain): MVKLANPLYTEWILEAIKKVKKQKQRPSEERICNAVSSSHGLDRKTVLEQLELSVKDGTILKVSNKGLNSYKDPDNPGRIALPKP
`ATTGGGCC` has an E-score of -0.0493.
The E-score of `CATAGGGC` is reported as 0.0829.
`GGACCACC` has an E-score of -0.0486.
With `GGAGCTGA` the E-score was -0.203.
The E-score of `AATACAAG` is reported as -0.181.
For `GGAGTGGA`, the E-score was -0.0941.
The E-score of `ACTTTGTA` is reported as -0.2.
The E-score of `GCTATACA` is reported as 0.00588.
`GTGGAAAA` has an E-score of -0.122.
`ATTTGCTC` has an E-score of -0.0659.
With `CCGCGCCG` the E-score was 0.452.
For `TATAGATA`, the E-score was -0.149.
`CACACGCG` gave an E-score of 0.346.
The E-score of `CATGGTGA` is reported as -0.0369.
`GCTGGGAC` gave an E-score of -0.12.
The E-score of `CAACTGCC` is reported as 0.106.
For `CTCGCCGA`, the E-score was 0.209.
With `CCTGTTGC` the E-score was -0.16.
For `CAATAGCG`, the E-score was 0.162.
`AGGGACGG` has an E-score of 0.268.

Set 3
Target: Prothrombin, mature alpha-thrombin (F2, Homo sapiens, UniProt P00734)
Method: aptamer microarray, sandwich
Form: DNA with 2'F-ANA
Sample: in vitro
Tested at: 200 nM
Notes: whole 15-mer aptamer, many near background
With: Cy3 exosite-II aptamer, 400 nM
Direction: higher = stronger binding
Oligonucleotide: GGTTGGTGTGGTTGG
For `2'F-ANA at 1 2 3 4 7 8 9 10 11`, “mean fluorescence intensity” read 60.6 a.u.
For `2'F-ANA at 1 3 5 8 11 13 15`, “mean fluorescence intensity” read 74.7 a.u.
`2'F-ANA at 1 4 5 6 8 9 15` — result for “mean fluorescence intensity”: 60.2 a.u.
`2'F-ANA at 1 3 4 5 6 10 11 12 14 15` — result for “mean fluorescence intensity”: 47.6 a.u.
`2'F-ANA at 1 2 3 5 6 11 13 14 15`: “mean fluorescence intensity” 48.9 a.u.
`2'F-ANA at 2 5 6 7 8 9 12 14 15` — result for “mean fluorescence intensity”: 52.3 a.u.
Under “mean fluorescence intensity”, `2'F-ANA at 4 5 8 10 11 12 13 15` is recorded as 59.4 a.u.
Under “mean fluorescence intensity”, `2'F-ANA at 1 3 7 10 11 12 14 15` is recorded as 61.7 a.u.
Under “mean fluorescence intensity”, `2'F-ANA at 2 3 4 5 6 8 10 12 13 14 15` is recorded as 64.7 a.u.
`2'F-ANA at 1 2 3 11 12 15`: “mean fluorescence intensity” 427 a.u.
For `2'F-ANA at 1 2 3 4 5 6 9 10 11 14`, “mean fluorescence intensity” read 45.2 a.u.
`2'F-ANA at 1 4 5 8 12 14` — result for “mean fluorescence intensity”: 76.7 a.u.
Under “mean fluorescence intensity”, `2'F-ANA at 2 3 5 6 11 12 14` is recorded as 52.1 a.u.
`2'F-ANA at 1 4 8 9 10 13 15`: “mean fluorescence intensity” 49 a.u.
`2'F-ANA at 5 6 7 8 11 12 14` — result for “mean fluorescence intensity”: 46.6 a.u.
`2'F-ANA at 9 11 12`: “mean fluorescence intensity” 669 a.u.
For `2'F-ANA at 1 2 4 5 7 9 10 11 12 13 14 15`, “mean fluorescence intensity” read 47.2 a.u.
Under “mean fluorescence intensity”, `2'F-ANA at 1 3 6 10 11 12 13` is recorded as 95.5 a.u.
`2'F-ANA at 2 3 11 12 13 15` — result for “mean fluorescence intensity”: 880 a.u.
For `2'F-ANA at 4 5 6 7 8 9 13 14`, “mean fluorescence intensity” read 47.2 a.u.
For `2'F-ANA at 5 6 7 9 11 13 14 15`, “mean fluorescence intensity” read 48.9 a.u.

Set 4
Target: ABI1, truncated, D143A, DHFR fusion (Arabidopsis thaliana)
Method: DHFR PCA, deep sequencing
Sample: yeast
Notes: methotrexate growth selection, single substitutions
With: (+)-ABA 2500 µM
Relative to: wild-type fitted maximum
Direction: higher = stronger binding
Starting sequence: PYL1, truncated, DHFR fusion (Arabidopsis thaliana); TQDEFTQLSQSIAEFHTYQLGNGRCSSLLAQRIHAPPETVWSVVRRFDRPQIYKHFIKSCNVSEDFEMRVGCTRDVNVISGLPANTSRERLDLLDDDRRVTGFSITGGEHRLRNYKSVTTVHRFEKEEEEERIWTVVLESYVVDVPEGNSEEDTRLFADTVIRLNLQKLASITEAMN
`D96V` — result for “relative binding score”: 81.9%.
`L169E`: “relative binding score” -4.16%.
`V43Q` — result for “relative binding score”: 89%.
`T86V`: “relative binding score” 89.1%.
`I52H`: “relative binding score” 98.2%.
Under “relative binding score”, `E4F` is recorded as 101%.
Under “relative binding score”, `R90A` is recorded as 90.3%.
For `Y141E`, “relative binding score” read 11.9%.
Under “relative binding score”, `E38A` is recorded as 94.2%.
`G102E` — result for “relative binding score”: 71.9%.
For `S87P`, “relative binding score” read 18.5%.
`D153R`: “relative binding score” 10.8%.
Under “relative binding score”, `F103H` is recorded as 78.1%.
Under “relative binding score”, `A13H` is recorded as 102%.
For `S9A`, “relative binding score” read 109%.
`L169D`: “relative binding score” -1.67%.

Set 5
Target: Sal-like protein 4, full length isoform A (SALL4, Homo sapiens, UniProt Q9UJQ4, residues 1-1053)
Chain of UniProt Q9UJQ4 (whole entry, looked up): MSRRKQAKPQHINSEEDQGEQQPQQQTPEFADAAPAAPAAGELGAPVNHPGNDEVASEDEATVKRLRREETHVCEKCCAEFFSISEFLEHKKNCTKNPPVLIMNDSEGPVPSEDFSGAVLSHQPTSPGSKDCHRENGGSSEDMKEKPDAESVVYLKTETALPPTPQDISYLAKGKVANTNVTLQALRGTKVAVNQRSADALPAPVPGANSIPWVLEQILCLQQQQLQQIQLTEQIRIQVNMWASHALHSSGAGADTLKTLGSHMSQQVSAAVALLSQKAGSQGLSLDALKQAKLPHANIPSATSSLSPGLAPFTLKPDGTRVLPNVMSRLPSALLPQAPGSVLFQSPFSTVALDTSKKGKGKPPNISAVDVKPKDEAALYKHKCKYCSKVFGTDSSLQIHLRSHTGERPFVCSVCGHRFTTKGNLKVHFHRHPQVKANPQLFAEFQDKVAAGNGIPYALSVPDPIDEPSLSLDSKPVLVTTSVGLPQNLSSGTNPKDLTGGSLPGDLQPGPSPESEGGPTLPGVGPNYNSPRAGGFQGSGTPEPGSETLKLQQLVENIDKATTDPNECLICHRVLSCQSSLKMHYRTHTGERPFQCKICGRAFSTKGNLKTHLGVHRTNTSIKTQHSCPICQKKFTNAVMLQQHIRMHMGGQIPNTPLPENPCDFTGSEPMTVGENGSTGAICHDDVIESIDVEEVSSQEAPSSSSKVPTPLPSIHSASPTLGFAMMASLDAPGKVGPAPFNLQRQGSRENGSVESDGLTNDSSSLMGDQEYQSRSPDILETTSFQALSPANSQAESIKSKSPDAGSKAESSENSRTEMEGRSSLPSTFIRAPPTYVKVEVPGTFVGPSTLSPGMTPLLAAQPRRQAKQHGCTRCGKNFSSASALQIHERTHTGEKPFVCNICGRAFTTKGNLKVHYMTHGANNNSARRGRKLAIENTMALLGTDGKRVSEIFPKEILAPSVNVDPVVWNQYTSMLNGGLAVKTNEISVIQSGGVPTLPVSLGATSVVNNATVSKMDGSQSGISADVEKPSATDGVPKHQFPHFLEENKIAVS
Method: universal PBM
Form: double-stranded DNA, one strand shown
Sample: in vitro
Tested at: 600 nM
Notes: 8-mer, flanks averaged, mean of replicates
Direction: higher = stronger binding
With `GGGCTGGA` the E-score was -0.331.
`CTTAGCGC` gave an E-score of -0.15.
The E-score of `ACTTAAAA` is reported as 0.245.
With `CCATTAGG` the E-score was -0.0521.
The E-score of `CTGTCTAA` is reported as -0.0232.
For `ACCGAGAC`, the E-score was -0.116.
With `ATACTAAA` the E-score was 0.261.
The E-score of `AAAGTGCC` is reported as -0.183.
`GTGTACTA` has an E-score of 0.116.
`AAACTTAT` has an E-score of 0.355.
The E-score of `CATGAACA` is reported as 0.17.
`GCTAGAGC` has an E-score of -0.174.
For `AGCAGATA`, the E-score was 0.0777.
With `CAAGGTGG` the E-score was -0.2.
With `AACGAGTG` the E-score was 0.0545.
The E-score of `AGATTTAA` is reported as 0.101.
`AATGGGGA` has an E-score of -0.00442.
`AACGCAGT` gave an E-score of -0.0894.
`CAATCAAA` gave an E-score of 0.0906.
`ACTCCGTA` has an E-score of -0.0958.
`AAGTTAGA` has an E-score of 0.204.
The E-score of `ACCCGCCT` is reported as -0.337.
With `GTACGTGA` the E-score was 0.0279.
For `GTAGCTTA`, the E-score was 0.166.
The E-score of `AATGAGAG` is reported as 0.123.

Set 6
Target: CCNB3, cyclin fold, Cln2 fusion (human)
Method: yeast growth competition, sequencing
Sample: yeast
Notes: weak parent motif
Relative to: not given
Direction: higher = stronger binding
Starting sequence: CDC6 docking peptide (human); TLKGRRLVFDNQL
For `F9R`, “normalised enrichment score” read -0.0165.
`T1P`: “normalised enrichment score” 0.46.
`K3G` — result for “normalised enrichment score”: 0.237.
`N11W` — result for “normalised enrichment score”: 0.81.
Under “normalised enrichment score”, `T1S` is recorded as 0.32.
For `Q12I`, “normalised enrichment score” read 0.362.
For `D10L`, “normalised enrichment score” read 0.371.
For `R5M`, “normalised enrichment score” read 0.0227.
`T1M` — result for “normalised enrichment score”: 0.162.
`Q12R` — result for “normalised enrichment score”: -0.0547.
`L7G`: “normalised enrichment score” -0.254.
For `K3N`, “normalised enrichment score” read 0.00881.
`R6D`: “normalised enrichment score” 0.0462.
Under “normalised enrichment score”, `N11M` is recorded as 0.102.
`V8H`: “normalised enrichment score” 0.562.
`D10M` — result for “normalised enrichment score”: 0.471.
For `R5T`, “normalised enrichment score” read 0.914.
`Q12W` — result for “normalised enrichment score”: 0.578.
Under “normalised enrichment score”, `N11F` is recorded as 0.874.
For `L13Q`, “normalised enrichment score” read 0.469.

Further values, each from its own experiment
`PhoQ, residues 284 288 289 292 302 303 TYGVAM` has a fold induction of 5.9 (PhoP, residues 12 14 15 18 19 MHTVL (Escherichia coli, UniProt P23836); Sort-seq, measured: YFP reporter; E. coli; PhoQ-PhoP variant library, with: 10 µM Mg2+; relative to: high Mg2+ state, higher = stronger signaling).

For quick reference, copied from above (set 2):
`ATTTGCTC` has an E-score of -0.0659.
The E-score of `CAACTGCC` is reported as 0.106.
`CACACGCG` gave an E-score of 0.346.
`GCTGGGAC` gave an E-score of -0.12.
With `GGAGCTGA` the E-score was -0.203.
The E-score of `CATGGTGA` is reported as -0.0369.
